Measured values of several laboratories.
Each line is one published result; not all experiments were run side by side. “And” joins repeats or separate records; there may be more than shown. ± marks the error that the study gave.

Compound = CC(=O)Nc1cccc(-n2c(=O)n(C3CC3)c(=O)c3c(Nc4ccc(I)cc4F)n(C)c(=O)c(C)c32)c1; target or system = MeWo; assay = resazurin; conditions = concentration not given, 72 h, unit not given; how to read = reference: DMSO; quantity = viability; result = 0.887 and 0.531 and 0.686 and 0.593 and 0.951 and 0.633
Compound = Cc1noc(C)c1Cn1cc(N2C(=O)CN(Cc3cccc(O)c3)C2=O)cn1; target or system = human blood lymphocytes; conditions = 400 µg/mL, 21 h; quantity = aberrant cells with gaps; result = 0.5%
Compound = CC[C@H](CO)N(CCN(N=O)[C@H](CC)CO)N=O; target or system = Escherichia coli; assay = mutagenicity, Ames plate incorporation; system = WP2 uvrA pKM101; conditions = 150 µg/plate, without S9, methanol; quantity = revertant colonies per plate; result = 149 ± 18
Compound = C[N+](C)(C)CCCC(=O)O.[Cl-]; target or system = HCT-8 infected with Cryptosporidium parvum; assay = Hoechst nuclei count; conditions = 1 mM, 24 h; how to read = reference: PBS; quantity = host cell number; result = 1.02 ± 0.082
Compound = Cn1cc(-c2ccc(-c3cncc(Cl)c3N3CCC4(CCNC4=O)CC3)cc2)cn1; target or system = COLO 205; assay = gene expression, microarray, refers to: BHLHE41 mRNA; conditions = concentration not given, 6 h; how to read = reference: untreated cells; quantity = log2 fold change; result = 3.89
Compound = O=C(O)Cc1ccc(O)cc1; target or system = HCT-8 infected with Cryptosporidium parvum; assay = Hoechst nuclei count; conditions = 1 mM, 24 h; how to read = reference: PBS; quantity = host cell number; result = 1 ± 0.022
Compound = CCOc1c([C@H](C)n2nc(C)c3c(N)ncnc32)cc(Cl)c(F)c1[C@@H]1CNC(=O)C1; system = human, all cohorts, plasma; conditions = oral, 20 mg, day 15, geometric mean; quantity = AUC(0-tau); result = 12.6 µM·h
Compound = C[C@@H](c1ncncc1F)[C@](O)(Cn1cncn1)c1ccc(F)cc1F; target or system = MDCK; assay = permeability basolateral to apical; conditions = 1 µM, 90 min, pH 7.4 apical to 7.4 basolateral; quantity = Papp; result = 40.2 ×10⁻⁶ cm/s and 38.1 ×10⁻⁶ cm/s
Compound = Oc1cccc2[nH]ccc12; target or system = HCT-8 infected with Cryptosporidium parvum; assay = Hoechst nuclei count; conditions = 1 mM, 24 h; how to read = reference: PBS; quantity = host cell number; result = 0.798 ± 0.025
Compound = CC(C)n1nccc1-c1ncccc1COc1cccc(O)c1C=O; target or system = MDCK; conditions = 1 µM, 90 min, pH 6.5 apical, 7.4 basolateral, basolateral to apical; quantity = mass recovery; result = 88 ± 7%
Compound = Nc1ccn([C@@H]2O[C@H](CO)[C@@H](O)[C@H]2O)c(=O)n1; target or system = human iPSC-derived cardiomyocytes; assay = MyBP-C/MYH ratio, plate-normalised SD score; conditions = concentration not given, primary screen; how to read = direction not given; quantity = activity score; result = 3.4
Compound = CCn1c(=O)c2c(nc(/C=C/c3ccc(OC)c(OC)c3)n2C)n(CC)c1=O; target or system = MDCK; assay = permeability basolateral to apical; conditions = 1 µM, 90 min, pH 7.4 apical to 7.4 basolateral; quantity = Papp; result = 16.1 ×10⁻⁶ cm/s and 22.6 ×10⁻⁶ cm/s
Compound = Cc1cc(C(=O)NC(C)(C)COc2cccc3c2C(N)=NS(=O)(=O)N3)cc(C)n1; target or system = human peripheral blood lymphocytes; assay = CBPI, concurrent micronucleus test; conditions = 250 µg/mL, 4 h, together with: rat liver S9; how to read = reference: vehicle control; quantity = cytotoxicity; result = 1%

Excerpt of the above:
Compound = CC[C@H](CO)N(CCN(N=O)[C@H](CC)CO)N=O; target or system = Escherichia coli; assay = mutagenicity, Ames plate incorporation; system = WP2 uvrA pKM101; conditions = 150 µg/plate, without S9, methanol; quantity = revertant colonies per plate; result = 149 ± 18
